Measurements collected from several papers.
Numbered parts are unrelated; each lists some results of a single study. Positions count from the first letter of the parent shown.

Sample 1
Target: ABI1, truncated, D143A, DHFR fusion (Arabidopsis thaliana)
Method: DHFR PCA, deep sequencing
Medium: yeast
Setting: methotrexate growth selection, single substitutions
Together with: (+)-ABA 4.8 µM
Relative to: wild-type fitted maximum
Direction: higher = stronger binding
Endpoint: relative binding score
Starting sequence: PYL1, truncated, DHFR fusion (Arabidopsis thaliana); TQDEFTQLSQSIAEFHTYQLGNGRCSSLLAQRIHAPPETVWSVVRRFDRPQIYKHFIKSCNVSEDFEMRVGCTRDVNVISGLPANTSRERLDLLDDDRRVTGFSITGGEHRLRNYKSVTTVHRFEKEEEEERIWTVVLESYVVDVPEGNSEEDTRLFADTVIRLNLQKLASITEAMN
Q10K: 75.8%
E131S: 82.2%
F5G: 48.4%
L112C: -4.86%
R49E: 63.6%
R163V: -1.23%
V143K: -2.76%
V62T: 57.8%
R90M: 37.4%
H16A: -9.05%
N77S: 82%
I79M: 51%
E14C: 26.5%
W41C: 17%
M68P: 46.6%
V118S: 1.09%
Q167L: 71.4%

Sample 2
Target: Centromere-binding protein 1, full length, His-tagged (CBF1, Saccharomyces cerevisiae, UniProt P17106, residues 1-351)
Sequence of UniProt P17106 (whole entry, looked up): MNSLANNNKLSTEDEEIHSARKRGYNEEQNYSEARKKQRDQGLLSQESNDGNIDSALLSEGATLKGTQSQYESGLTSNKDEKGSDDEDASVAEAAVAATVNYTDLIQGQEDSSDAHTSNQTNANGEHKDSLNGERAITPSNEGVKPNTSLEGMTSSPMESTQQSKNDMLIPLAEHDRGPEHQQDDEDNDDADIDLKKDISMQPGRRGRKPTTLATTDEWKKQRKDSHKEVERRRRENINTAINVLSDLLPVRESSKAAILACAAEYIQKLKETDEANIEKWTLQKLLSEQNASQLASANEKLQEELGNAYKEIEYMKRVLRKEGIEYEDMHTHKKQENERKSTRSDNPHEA
Method: competition protein-binding microarray
Form: double-stranded DNA, one strand shown
Medium: in vitro
Concentration: 2 µM
Setting: whole 60-bp probe, lowest competitor level
Together with: Pho4 competitor, 0.05 µM
Direction: higher = stronger binding
Endpoint: fluorescence intensity
TCGGTCCCCTCATAAAATTATATATAAATGGGTTAGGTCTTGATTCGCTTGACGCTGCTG: 78 a.u.
AACTGTACCGGCTGGCACGTCGTACACAGAATCAGAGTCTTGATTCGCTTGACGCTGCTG: 60.7 a.u.
CGGGGTTAAGTTTGATATGTGGGTGGCTTGCAGCAGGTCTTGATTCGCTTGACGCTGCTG: 55.4 a.u.
AACCAGGGCAATTCATCCGTGACGGCGAATGTTTTGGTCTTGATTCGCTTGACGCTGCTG: 80.2 a.u.
CGTCCTAGTGATTGCTAAGTGGGTGCCATGAGGAAGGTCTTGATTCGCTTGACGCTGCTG: 92.2 a.u.
AAAGACCTGTCGAGTCACGTTCGTTCAACTGTAGTGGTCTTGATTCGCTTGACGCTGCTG: 356 a.u.
GTTAATGTTGGAGCTGTTGTGACGGTATTAGAACAAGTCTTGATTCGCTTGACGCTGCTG: 84.2 a.u.
TGGCATCCCTCCCGACACGTGACCGCAGCGGGGACAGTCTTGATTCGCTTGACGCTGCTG: 9150 a.u.
GTCTTGTCTCATTTTCACGTGTCATTCCCCACTTCAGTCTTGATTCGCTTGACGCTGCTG: 838 a.u.
CATACCCAACCTTGGACAGTGGGTGAAGATATTTGTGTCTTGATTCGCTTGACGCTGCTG: 53.1 a.u.
AAATGGGCAGAATGCCACATGTTAGCAATGCAACGAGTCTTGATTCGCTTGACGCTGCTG: 108 a.u.

Sample 3
Target: CCNA1, cyclin fold, Cln2 fusion (human)
Method: yeast growth competition, sequencing
Medium: yeast
Setting: weak parent motif
Relative to: not given
Direction: higher = stronger binding
Endpoint: normalised enrichment score
Starting sequence: RBL1 docking peptide (human); GSAKRRLFGEDPP
P13S: 0.393
A3F: 0.54
S2F: 0.259
F8R: 0.195
F8C: 0.271
G9K: 0.358
E10S: 0.771
L7E: 0.221
R6K: 0.642
L7V: 0.663
G9H: 0.457
D11F: 0.244
S2M: 0.627
S2K: 0.201
A3C: 0.835

Sample 4
Target: Histone acetyltransferase KAT6A, both winged helices, GST fusion (KAT6A, Homo sapiens, UniProt Q92794, residues 1-181)
Method: protein binding microarray
Form: double-stranded DNA, one strand shown
Medium: in vitro
Concentration: not given
Setting: 8-mer, flanks averaged, mean of 2 arrays, mostly near background
Relative to: not given
Direction: higher = stronger binding
Endpoint: E-score
Construct (chain): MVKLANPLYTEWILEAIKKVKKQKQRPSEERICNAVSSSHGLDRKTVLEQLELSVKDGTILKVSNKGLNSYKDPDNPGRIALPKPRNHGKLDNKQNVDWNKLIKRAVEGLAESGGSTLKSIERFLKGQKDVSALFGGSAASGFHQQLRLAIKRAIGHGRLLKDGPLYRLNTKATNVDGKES
AGTAGGGG: -0.172
AAGTTAGC: -0.0863
CAGAGAGA: -0.135
AATCCCCA: -0.232
CCGTCCGC: 0.318
AGGCCAAT: -0.203
ATTATGTA: 0.117
AAAGTCGA: 0.00487
ATTACAAG: -0.0136
GTGACAAC: -0.0205
CTCCCAAA: -0.165
CGCTCCTA: 0.0604
CAGCTTAG: -0.0404
AAGAGAGC: -0.0495
GTTCTTGA: -0.097
CCGACTTC: 0.0801
GGGCATGA: -0.0698
ACGGGTCC: 0.214
GCGAGTTA: 0.108
GGTGGATA: -0.084
AATAATGC: -0.0153
AGTCGGAC: 0.0399
AGAGAGTG: -0.1
CTGCTTGA: -0.203
ATAATCTA: 0.0411

Sample 5
Target: Prothrombin, mature alpha-thrombin (F2, Homo sapiens, UniProt P00734)
Method: aptamer microarray, sandwich
Form: DNA with 2'F-ANA
Medium: in vitro
Concentration: 200 nM
Setting: whole 15-mer aptamer, many near background
Together with: Cy3 exosite-II aptamer, 400 nM
Direction: higher = stronger binding
Endpoint: mean fluorescence intensity
Strand: GGTTGGTGTGGTTGG
2'F-ANA at 1 2 3 4 6 7 8 9 14 15: 57.6 a.u.
2'F-ANA at 2 3 4 7 8 9 10 12: 366 a.u.
2'F-ANA at 1 2 3 5 9 15: 63.4 a.u.
2'F-ANA at 1 2 3 4 5 11 13 14: 46.5 a.u.
2'F-ANA at 2 4 5 9 10 14 15: 45 a.u.
2'F-ANA at 2 3 5 7 9 11 12 14 15: 54.1 a.u.
2'F-ANA at 1 2 3 4 10 11 13 14 15: 51.7 a.u.
2'F-ANA at 5 7 9 11 13 15: 51.4 a.u.
2'F-ANA at 1 3 4 5 6 7 12 14 15: 63.2 a.u.
2'F-ANA at 1 2 3 4 8 9 11 13: 124 a.u.
2'F-ANA at 1 4 6 7 9 10 11 13 14 15: 46.5 a.u.
2'F-ANA at 3 4 7 9 11 13 15: 545 a.u.
2'F-ANA at 5 6 7 8 9 10 11 12 13 15: 50.7 a.u.
2'F-ANA at 1 2 5 8 10 14: 52.2 a.u.
2'F-ANA at 2 3 6 9 10 11 15: 296 a.u.
2'F-ANA at 1 3 4 7 9 10 15: 62.6 a.u.
2'F-ANA at 2 3 6 7 8 10 11 12 14 15: 246 a.u.

Sample 6
Target: Ras GTPase-activating protein-binding protein 1, RRM domain (G3BP1, Homo sapiens, UniProt Q13283)
Sequence of UniProt Q13283 (whole entry, looked up): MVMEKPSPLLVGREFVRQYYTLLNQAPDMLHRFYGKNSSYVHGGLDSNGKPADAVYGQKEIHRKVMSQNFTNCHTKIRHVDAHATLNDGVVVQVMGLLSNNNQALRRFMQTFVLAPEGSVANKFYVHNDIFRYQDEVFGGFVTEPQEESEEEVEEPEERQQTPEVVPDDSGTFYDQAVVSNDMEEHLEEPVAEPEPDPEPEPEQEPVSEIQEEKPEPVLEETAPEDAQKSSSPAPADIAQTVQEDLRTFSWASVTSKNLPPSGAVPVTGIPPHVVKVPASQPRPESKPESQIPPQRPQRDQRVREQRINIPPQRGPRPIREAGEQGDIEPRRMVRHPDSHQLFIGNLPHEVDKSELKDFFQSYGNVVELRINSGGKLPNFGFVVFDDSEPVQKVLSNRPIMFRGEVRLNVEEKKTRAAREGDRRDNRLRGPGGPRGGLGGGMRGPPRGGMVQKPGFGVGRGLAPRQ
Method: RNA Bind-n-Seq
Form: RNA
Medium: in vitro
Concentration: 1 µM
Setting: whole 134-nt RNA, ends assumed
Together with: 150 mM KCl
Relative to: input library
Direction: higher = stronger binding
Endpoint: log2 enrichment
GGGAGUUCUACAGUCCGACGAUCCUCAGCAGACCCUGAAGGACACUUUGAGACACCAAUCUGGAUUGAGCGGGUGGUGAUAAUAGGGGCUGGAAAGCCAGCAGCUGUGGUACUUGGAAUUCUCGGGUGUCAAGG: -0.033
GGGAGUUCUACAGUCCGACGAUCUCAAGUCCUGUGCUACACAUCGUAUGUACCGAAUCGGUUUUUGGAAAGGAAAGGAAAGUAUUAUGUUACGCCGUUCGGAUCUGCACUUCCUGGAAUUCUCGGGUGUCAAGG: -0.134
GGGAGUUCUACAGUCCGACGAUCUAACUUUAGAGGAGGAUCUGAUGGAUAUGGCAGUGGACGUGGAUUUGGGGAUGGCUAUAAUGGGUAUGGAGGAGGACCUAGAGGUGGCAAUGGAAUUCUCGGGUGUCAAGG: -0.481
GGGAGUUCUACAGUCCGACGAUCCUCAAGUCCUGUGCUACACAUCGUAUGUACCGAAUCGGGAAGGAAGGGAAGGGGAAAGUAUUAUGUUACGCCGUUCGGAUCUGCACUUCCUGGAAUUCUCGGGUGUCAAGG: 0.0956
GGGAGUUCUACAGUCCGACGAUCUGGCCCUGGUGGCAUGCGGGGAGGAAGAGGUGGCCUCAUGUAUCGUGGUGGUCCCGGUGGAAUGUUCAGAGGUGGCCGUGGUGGAGACAGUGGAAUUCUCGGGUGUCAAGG: 0.306
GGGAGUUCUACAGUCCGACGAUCCAAGUCCUGUGCUACACAUCGUAUGUACCGAAUCGGAAAAAGGAAAAAGGAAAGGAAAGUAUUAUGUUACGCCGUUCGGAUCUGCACUUCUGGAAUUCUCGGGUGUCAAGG: -0.084
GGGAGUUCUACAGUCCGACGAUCUAACUUUAGAGGAGGAUCUGAUGGAUAUGGCAGUGGACGUGGAUUUGGGGAUGGCUAUAAUGGGUGUGGAGGAGGACCUGGAGGUGGCAAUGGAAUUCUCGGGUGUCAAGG: -0.212
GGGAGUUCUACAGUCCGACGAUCUAACUUUAGAGGAGGAUCUGAUGGAUGUGGCAGUGGACGUGGAUUUGGGGAUGGCUAUAAUGGGUAUGGAGGAGGACCUGGAGGUGGCAAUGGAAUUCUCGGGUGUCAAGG: -0.942
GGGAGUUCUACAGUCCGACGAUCGUCCUGUGCUACACAUCGUAUGUACCGAAUCGGGGUUUUUGGGUUUUUGGGGUUUUUGGAAAGUAUUAUGUUACGCCGUUCGGAUCUGCAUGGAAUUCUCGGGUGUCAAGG: -0.261
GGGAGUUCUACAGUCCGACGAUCCAAGUCCUGUGCUACACAUCGUAUGUACCGAAUCGGGCCGGGGCCGGGGCCGGGGAAAGUAUUAUGUUACGCCGUUCGGAUCUGCACUUCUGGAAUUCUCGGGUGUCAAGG: -1.46
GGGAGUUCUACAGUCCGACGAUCGUCCUGUGCUACACAUCGUAUGUACCGAAUCGGGGUUUUUGGGGUUUGGGGAAAGGGGAAAGUAUUAUGUUACGCCGUUCGGAUCUGCACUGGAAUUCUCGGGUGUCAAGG: 1.85
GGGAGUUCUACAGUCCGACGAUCCACAGACAACACGCACCCACACAGACACAGAGGGAAGGGAAAGGGAUGGGGACAGGGUGCACAGCAGGGCGGGGUAGGACCCCAGCCCCUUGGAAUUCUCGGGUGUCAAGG: -0.124
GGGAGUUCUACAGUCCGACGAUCUCAAGUCCUGUGCUACACAUCGUAUGUACCGAAUCGGCCCGGGCCCGGGCCCGGGAAAGUAUUAUGUUACGCCGUUCGGAUCUGCACUUCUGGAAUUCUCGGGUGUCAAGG: -0.265
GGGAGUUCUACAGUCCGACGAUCUCCUGUGCUACACAUCGUAUGUACCGAAUCGGGGUUUGGGGUUUUUUUGGGGAAAGGGGAAAGUAUUAUGUUACGCCGUUCGGAUCUGCAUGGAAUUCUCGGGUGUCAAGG: 1.12
